Assay results collected from several papers.
Numbered parts are unrelated; each lists some results of a single study. Substitutions count along the parent as printed.

Sample 1 — target: UBE2V2 UBC core domain (UniProt Q15819); technique: yeast two-hybrid; sample: yeast; notes: mostly zero background; relative to: not given; reading: higher = stronger interaction
B1: CBLL1 RING domain (UniProt Q75N03); chain GEKDDTPVHFCDKCGLPIKIYGRMIPCKHVFCYDCAILHEKKGDKMCPGCSDPVQRIEQCT
B2: ARIH1 RING domain (UniProt Q9Y4X5); chain NTRSSAQDMPCQICYLNYPNSYFTGLECGHKFCMQCWSEYLTTKIMEEGMGQTISCPAHGCDILVDDNTVM
B3: RNF130 RING domain (UniProt Q86XS8); chain DKETDPDFDHCAVCIESYKQNDVVRILPCKHVFHKSCVDPWLSEHCTCPMCKLNILKALGIV
B4: TRIM74 RING domain (UniProt Q86UV6); chain SLLELEDWLQCPICLEVFKESLMLQCGHSYCKGCLVSLSYHLDTKVRCPMCWQVVDGSSSLP
B5: RNF17 RING domain (UniProt Q9BXT8); chain SQPWGAAEIQCTRCGRRVSRSSGHHCELQCGHAFCELCLLMTEECTTIICPDCEVATAVNTRQR
B6: PJA2 RING domain (UniProt O43164); chain DHTAIGQEQCCPICCSEYIKDDIATELPCHHFFHKPCVSIWLQKSGTCPVCRRHFPPAVIEA
B7: RNF7 RING domain (UniProt Q9UBF6); chain AICRVQVMDACLRCQAENKQEDCVVVWGECNHSFHNCCMSLWVKQNNRCPLCQQDWVVQRIGK
Target sequence (chain): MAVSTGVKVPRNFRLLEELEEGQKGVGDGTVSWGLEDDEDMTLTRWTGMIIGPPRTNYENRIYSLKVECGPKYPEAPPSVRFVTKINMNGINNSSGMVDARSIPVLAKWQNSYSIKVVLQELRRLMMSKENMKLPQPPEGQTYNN
Sequence | lacZ reporter activity
B1 (CBLL1 RING domain) | 0
B2 (ARIH1 RING domain) | 0
B3 (RNF130 RING domain) | 0
EIKDYKARLTCPCCNMRKKDAVLTKCFHVFCFECVKTRYDTRQRKCPKCNAAFGANDFHR (RNF20 RING domain (UniProt Q5VTR2)) | 0
PLRRLQEEKLCKICMDRHIAVVFIPCGHLVTCKQCAEAVDRCPMCSAVIDFKQRVF (BIRC8 RING domain (UniProt Q96P09)) | 0
KITELNPHLMCALCGGYFIDATTIVECLHSFCKTCIVRYLETNKYCPMCDVQVHKTRPLL (PCGF2 RING domain (UniProt P35227)) | 0
B4 (TRIM74 RING domain) | 0
B5 (RNF17 RING domain) | 0
B6 (PJA2 RING domain) | 0
B7 (RNF7 RING domain) | 0

Sample 2 — technique: universal PBM; molecule type: double-stranded DNA, one strand shown; sample: in vitro; tested at: 600 nM; reading: higher = stronger binding
Target: Sal-like protein 4, full length isoform A (SALL4, Homo sapiens, UniProt Q9UJQ4, residues 1-1053)
Chain of UniProt Q9UJQ4 (whole entry, looked up): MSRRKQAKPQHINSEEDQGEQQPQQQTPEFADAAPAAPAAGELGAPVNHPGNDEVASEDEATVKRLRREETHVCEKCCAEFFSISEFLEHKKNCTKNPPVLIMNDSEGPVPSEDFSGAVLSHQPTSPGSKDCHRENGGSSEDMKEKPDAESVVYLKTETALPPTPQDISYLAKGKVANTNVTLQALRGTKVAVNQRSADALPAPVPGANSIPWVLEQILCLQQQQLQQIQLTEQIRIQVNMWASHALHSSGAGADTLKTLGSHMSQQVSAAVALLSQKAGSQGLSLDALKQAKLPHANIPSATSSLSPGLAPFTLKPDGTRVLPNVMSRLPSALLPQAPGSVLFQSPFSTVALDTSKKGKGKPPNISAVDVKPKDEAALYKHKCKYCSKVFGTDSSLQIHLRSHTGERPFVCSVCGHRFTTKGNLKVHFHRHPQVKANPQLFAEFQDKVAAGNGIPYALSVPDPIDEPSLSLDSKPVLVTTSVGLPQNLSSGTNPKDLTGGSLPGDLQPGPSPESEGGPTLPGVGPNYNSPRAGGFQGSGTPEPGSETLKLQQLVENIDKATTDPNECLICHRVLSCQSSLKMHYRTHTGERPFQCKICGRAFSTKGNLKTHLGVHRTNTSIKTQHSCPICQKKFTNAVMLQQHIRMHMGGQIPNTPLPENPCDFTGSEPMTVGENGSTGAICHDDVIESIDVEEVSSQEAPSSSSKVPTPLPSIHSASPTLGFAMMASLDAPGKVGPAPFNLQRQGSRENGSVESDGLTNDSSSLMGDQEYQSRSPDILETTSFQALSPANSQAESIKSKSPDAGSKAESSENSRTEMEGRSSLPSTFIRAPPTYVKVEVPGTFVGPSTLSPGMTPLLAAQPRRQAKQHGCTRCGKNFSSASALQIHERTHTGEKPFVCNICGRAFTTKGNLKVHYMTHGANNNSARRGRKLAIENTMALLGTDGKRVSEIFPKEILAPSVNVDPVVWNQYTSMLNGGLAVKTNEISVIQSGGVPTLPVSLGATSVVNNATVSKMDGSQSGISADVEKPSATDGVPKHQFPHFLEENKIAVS
Notes: 8-mer, flanks averaged, mean of replicates
Sequence | E-score
AGAAGGGC | -0.274
ATCTAGCG | -0.0187
CCCCTGGC | -0.269
CTCCGATC | -0.254
CGGCACAG | -0.18
GCTAATCC | -0.0551
GCCGACGA | -0.15
AGTAAAAT | 0.252
TAAACAGA | 0.247
AATCGAGC | -0.0608
CTCCGTCC | -0.28
AACCGTAG | -0.132
CTCTGGTC | -0.135
TCTGCTAA | 0.0362
ATGTTAGG | 0.195
CATGACAC | 0.144
AAACTCTA | 0.183
AGGCAGTG | -0.067
CGTCTCTA | -0.161
ATGGCCGA | -0.182
GCACAGAC | 0.0434
CACTTTGA | -0.102
CGCTTTGC | -0.0115
GGGGTGGA | -0.263
AGGGTTGC | -0.168

Sample 3 — target: MAFF, bZIP domain (human); technique: DHFR protein complementation; sample: yeast; relative to: wild-type JUN-FOS pair; reading: higher = stronger binding
Notes: single substitutions, most at no-binding floor
Starting sequence: JUN, bZIP domain (human); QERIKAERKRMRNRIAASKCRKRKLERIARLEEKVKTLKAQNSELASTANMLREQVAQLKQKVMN; partner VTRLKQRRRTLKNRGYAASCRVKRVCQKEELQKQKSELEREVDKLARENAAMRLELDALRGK
Change | binding fitness
K34L | -1.21 natural log
I28C | -1.37 natural log
K39E | -1.37 natural log
E33W | -1.52 natural log
L52G | -1.56 natural log
L59P | -1.49 natural log
L45V | -1.54 natural log
A29G | -1.44 natural log
N42M | -1.3 natural log
A29T | -1.34 natural log
S43L | -1.4 natural log
S43C | -1.4 natural log
E33F | -1.33 natural log
V56P | -1.5 natural log
T48M | -1.4 natural log
A49Y | -1.52 natural log
K34C | -1.42 natural log
V56K | -1.31 natural log
A49Q | -1.49 natural log
Q41P | -1.55 natural log
A40E | -1.45 natural log
Q41K | -1.3 natural log
V35S | -1.32 natural log
R53T | -1.45 natural log

Sample 4 — target: CCNB2, cyclin fold, Cln2 fusion (human); technique: yeast growth competition, sequencing; sample: yeast; notes: strong parent motif; relative to: not given; reading: higher = stronger binding
Starting sequence: E2F1 docking peptide (human); PPVKRRLDFETDH; partner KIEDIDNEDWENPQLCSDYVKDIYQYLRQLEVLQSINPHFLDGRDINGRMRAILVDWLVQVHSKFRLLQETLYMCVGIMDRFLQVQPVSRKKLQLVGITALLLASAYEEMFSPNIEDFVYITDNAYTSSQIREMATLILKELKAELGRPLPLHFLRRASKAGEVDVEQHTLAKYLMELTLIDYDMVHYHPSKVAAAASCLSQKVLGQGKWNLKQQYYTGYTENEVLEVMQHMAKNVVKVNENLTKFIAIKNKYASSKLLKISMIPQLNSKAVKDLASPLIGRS
Change | normalised enrichment score
PPVKRRLDGETDH [F9G] | 0.156
PPVKRRLVFETDH [D8V] | 2.76
PPVKRRLDQETDH [F9Q] | 0.417
PPVKRRLDFSTDH [E10S] | 3.09
PPVKRRYDFETDH [L7Y] | 0.296
PPVKRVLDFETDH [R6V] | 2.94
PPVKRRLQFETDH [D8Q] | 2.11
PPVFRRLDFETDH [K4F] | 0.851
PPVKRRLDFVTDH [E10V] | 2.17
PPVKRRLDFENDH [T11N] | 3.98
PPVDRRLDFETDH [K4D] | 0.306
PPVQRRLDFETDH [K4Q] | 2.69
PPVKYRLDFETDH [R5Y] | 0.498
PPVKARLDFETDH [R5A] | 1.39
PPKKRRLDFETDH [V3K] | 0.878
PWVKRRLDFETDH [P2W] | 1.57
PPVKRRLRFETDH [D8R] | 1.75
PNVKRRLDFETDH [P2N] | 3.1
PPRKRRLDFETDH [V3R] | 0.403
PLVKRRLDFETDH [P2L] | 2.95
PPVKRRLNFETDH [D8N] | 3.54
PPVKRALDFETDH [R6A] | 2.25
PPVKRRLDIETDH [F9I] | 0.281

A few entries again (sample 3):
Change | binding fitness
L52G | -1.56 natural log
A29T | -1.34 natural log
Q41K | -1.3 natural log
L45V | -1.54 natural log
S43L | -1.4 natural log
